Experimental data of several laboratories.
Compare with care: the assays were run in different laboratories. “And” joins repeats or separate records; there may be more than shown. Numbers after ± are the reported error.
SIK1: Serine/threonine-protein kinase SIK1 (SIK1, Homo sapiens, UniProt P57059)
UniProt P57059, sequence (whole entry, looked up): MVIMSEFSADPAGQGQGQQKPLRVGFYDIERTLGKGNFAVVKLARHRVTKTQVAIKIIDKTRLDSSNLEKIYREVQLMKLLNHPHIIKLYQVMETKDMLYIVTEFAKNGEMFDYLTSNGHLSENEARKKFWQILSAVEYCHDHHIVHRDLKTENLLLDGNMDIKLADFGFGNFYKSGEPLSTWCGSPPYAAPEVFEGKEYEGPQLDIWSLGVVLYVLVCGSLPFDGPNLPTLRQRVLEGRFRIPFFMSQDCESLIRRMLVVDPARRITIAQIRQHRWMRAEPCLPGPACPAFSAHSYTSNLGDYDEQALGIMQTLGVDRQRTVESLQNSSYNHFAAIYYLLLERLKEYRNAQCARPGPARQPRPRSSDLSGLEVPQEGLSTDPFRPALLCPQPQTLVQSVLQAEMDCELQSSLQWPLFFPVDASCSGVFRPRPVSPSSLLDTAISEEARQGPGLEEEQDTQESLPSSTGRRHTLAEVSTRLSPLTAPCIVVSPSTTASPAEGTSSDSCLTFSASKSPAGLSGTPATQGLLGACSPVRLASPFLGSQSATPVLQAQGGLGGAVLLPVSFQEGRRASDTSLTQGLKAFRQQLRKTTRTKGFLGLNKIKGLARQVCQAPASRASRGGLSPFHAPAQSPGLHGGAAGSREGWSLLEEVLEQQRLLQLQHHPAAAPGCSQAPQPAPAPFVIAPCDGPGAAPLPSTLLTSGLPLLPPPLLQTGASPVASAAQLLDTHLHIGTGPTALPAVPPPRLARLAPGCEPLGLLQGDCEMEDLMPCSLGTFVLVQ
UCHL1: Ubiquitin carboxyl-terminal hydrolase isozyme L1 (UCHL1, Homo sapiens, UniProt P09936)
UniProt Q9EP73, sequence (whole entry, looked up): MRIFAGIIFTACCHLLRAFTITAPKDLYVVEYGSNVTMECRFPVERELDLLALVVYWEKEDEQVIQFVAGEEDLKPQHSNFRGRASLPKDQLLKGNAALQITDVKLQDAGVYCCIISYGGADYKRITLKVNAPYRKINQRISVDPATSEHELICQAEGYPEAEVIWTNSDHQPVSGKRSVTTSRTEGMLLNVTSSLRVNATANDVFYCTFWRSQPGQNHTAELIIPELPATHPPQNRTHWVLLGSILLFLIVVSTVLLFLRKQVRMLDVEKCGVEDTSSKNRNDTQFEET
UniProt P09936, sequence (whole entry, looked up): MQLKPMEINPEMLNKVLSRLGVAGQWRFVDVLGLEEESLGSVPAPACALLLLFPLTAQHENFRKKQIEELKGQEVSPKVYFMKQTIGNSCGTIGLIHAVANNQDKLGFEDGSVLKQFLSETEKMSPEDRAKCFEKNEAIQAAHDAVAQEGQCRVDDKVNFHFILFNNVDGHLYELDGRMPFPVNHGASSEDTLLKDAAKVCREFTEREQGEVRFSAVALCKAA
UniProt Q06520, sequence (whole entry, looked up): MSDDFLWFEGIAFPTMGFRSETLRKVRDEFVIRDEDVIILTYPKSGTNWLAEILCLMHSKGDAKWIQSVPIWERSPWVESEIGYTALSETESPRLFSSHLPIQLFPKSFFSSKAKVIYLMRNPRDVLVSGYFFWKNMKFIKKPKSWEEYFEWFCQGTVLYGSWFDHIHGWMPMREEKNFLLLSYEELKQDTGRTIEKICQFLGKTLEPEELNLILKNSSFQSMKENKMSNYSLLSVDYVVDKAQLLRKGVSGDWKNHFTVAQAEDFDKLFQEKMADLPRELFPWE
UniProt Q99685, sequence (whole entry, looked up): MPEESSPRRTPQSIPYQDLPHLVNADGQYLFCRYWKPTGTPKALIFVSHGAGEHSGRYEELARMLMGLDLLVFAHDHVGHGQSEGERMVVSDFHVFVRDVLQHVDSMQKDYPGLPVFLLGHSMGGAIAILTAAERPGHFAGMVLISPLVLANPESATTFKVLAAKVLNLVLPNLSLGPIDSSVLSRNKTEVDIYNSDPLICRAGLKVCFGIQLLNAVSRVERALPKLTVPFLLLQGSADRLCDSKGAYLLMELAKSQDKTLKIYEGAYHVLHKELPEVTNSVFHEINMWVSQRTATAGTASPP
UniProt Q8NEV4, sequence (whole entry, looked up): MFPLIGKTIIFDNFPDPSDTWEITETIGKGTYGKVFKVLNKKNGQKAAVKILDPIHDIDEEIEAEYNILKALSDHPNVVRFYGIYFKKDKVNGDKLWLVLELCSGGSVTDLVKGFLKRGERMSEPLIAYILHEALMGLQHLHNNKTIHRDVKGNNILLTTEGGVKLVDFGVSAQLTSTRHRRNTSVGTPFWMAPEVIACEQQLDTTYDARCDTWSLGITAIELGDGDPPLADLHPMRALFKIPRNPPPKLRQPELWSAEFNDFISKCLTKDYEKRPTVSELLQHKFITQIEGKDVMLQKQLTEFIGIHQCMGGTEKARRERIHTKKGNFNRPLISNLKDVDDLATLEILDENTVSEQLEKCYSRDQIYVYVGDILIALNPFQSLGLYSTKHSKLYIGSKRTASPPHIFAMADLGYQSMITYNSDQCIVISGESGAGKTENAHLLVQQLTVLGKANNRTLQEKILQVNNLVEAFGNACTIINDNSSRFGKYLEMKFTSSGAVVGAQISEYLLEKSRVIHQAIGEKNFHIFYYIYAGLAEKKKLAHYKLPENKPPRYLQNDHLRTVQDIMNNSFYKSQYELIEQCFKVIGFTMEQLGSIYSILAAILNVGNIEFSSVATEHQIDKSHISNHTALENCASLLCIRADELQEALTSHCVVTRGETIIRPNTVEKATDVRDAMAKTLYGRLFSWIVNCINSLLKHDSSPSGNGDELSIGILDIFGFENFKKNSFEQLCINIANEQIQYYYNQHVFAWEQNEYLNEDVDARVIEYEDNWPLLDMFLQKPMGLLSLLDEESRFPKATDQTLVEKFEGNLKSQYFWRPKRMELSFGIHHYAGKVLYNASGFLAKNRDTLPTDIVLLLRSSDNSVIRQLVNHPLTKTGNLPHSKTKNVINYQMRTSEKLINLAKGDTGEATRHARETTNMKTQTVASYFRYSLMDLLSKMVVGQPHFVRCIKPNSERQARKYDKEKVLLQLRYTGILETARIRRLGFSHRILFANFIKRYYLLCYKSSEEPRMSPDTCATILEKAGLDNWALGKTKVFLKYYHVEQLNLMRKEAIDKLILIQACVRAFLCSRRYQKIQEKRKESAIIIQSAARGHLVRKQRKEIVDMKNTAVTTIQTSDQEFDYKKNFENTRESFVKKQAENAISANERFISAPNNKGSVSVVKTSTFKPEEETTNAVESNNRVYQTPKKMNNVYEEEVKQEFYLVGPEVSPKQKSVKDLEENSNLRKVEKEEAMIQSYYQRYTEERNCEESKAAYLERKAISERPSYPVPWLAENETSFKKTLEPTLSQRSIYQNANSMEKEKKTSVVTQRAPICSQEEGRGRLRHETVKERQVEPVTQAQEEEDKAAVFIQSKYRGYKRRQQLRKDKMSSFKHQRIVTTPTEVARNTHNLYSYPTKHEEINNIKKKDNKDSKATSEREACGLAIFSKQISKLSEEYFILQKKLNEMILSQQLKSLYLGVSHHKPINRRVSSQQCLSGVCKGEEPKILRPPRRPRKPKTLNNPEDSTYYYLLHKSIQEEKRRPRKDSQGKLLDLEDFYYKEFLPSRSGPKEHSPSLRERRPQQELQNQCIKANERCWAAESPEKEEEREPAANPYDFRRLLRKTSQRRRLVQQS
UniProt Q7Z2W7, sequence (whole entry, looked up): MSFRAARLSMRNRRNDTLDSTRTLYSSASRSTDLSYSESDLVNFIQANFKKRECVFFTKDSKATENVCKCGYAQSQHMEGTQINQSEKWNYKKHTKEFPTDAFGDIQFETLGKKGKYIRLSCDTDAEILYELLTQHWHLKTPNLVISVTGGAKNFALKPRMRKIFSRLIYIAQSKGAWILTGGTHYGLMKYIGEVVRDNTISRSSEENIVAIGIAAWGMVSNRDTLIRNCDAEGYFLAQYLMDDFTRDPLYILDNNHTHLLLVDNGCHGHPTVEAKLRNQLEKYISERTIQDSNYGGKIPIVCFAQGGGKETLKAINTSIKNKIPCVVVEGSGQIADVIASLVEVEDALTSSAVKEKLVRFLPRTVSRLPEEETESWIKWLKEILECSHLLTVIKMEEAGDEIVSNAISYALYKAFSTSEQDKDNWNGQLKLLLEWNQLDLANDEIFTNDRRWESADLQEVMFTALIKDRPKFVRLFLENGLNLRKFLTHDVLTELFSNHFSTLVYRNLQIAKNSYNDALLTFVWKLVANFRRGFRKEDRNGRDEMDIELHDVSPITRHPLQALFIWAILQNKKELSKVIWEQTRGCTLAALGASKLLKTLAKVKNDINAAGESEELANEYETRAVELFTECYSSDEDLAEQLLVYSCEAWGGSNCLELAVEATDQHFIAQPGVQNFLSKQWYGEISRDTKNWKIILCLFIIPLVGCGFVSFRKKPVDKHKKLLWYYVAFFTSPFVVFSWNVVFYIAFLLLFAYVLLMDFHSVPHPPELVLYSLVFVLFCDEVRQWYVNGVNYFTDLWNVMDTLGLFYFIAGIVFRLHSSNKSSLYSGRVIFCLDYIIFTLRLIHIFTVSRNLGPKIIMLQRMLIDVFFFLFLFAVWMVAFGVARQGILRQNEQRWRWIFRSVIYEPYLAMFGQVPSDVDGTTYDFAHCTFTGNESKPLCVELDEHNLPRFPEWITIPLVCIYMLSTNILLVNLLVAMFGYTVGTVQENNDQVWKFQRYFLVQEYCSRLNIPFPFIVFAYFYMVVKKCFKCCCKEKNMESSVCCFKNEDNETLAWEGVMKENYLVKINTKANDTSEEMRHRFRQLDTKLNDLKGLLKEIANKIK
UniProt P21452, sequence (whole entry, looked up): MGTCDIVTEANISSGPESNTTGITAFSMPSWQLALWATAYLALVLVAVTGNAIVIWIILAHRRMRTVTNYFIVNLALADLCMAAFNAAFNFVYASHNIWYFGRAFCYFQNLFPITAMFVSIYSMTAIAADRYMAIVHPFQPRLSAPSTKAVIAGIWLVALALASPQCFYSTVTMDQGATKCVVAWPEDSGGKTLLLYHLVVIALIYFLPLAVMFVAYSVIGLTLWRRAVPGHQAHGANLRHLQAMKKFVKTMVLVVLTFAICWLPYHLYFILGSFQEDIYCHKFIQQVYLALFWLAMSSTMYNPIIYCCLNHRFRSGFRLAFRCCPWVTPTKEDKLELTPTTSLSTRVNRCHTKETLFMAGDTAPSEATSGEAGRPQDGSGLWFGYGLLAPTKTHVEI

COc1ccc(N2C(=O)N(c3c(C)cccc3Cl)Cc3cnc(Nc4ccc(C5CCN(C)CC5)cc4OC)nc32)nc1  inhibition (Myosin-IIIa (MYO3A, Homo sapiens, UniProt Q8NEV4); kinase activity; 0.5 µM): 28%
Nc1ncc(-c2nc(N3CCOCC3)nc(N3CCOCC3)n2)c(C(F)F)n1  remaining binding (SIK1; KINOMEscan; 10 µM; baseline: control): 100%
CCCCCC[C@H]1C(=O)O[C@H](C)[C@H](NC(=O)c2cccc(NC=O)c2O)C(=O)O[C@@H](C)[C@@H]1OC(=O)CC(C)C  probe labelling (Monoglyceride lipase (MGLL, Homo sapiens, UniProt Q99685); gel-based ABPP; U-87 MG; concentration not given, 2 h, added: 10 nM LEI-463-Cy5): decreased
CC1(C)C(C=C(Cl)Cl)C1C(=O)OCc1cccc(Oc2ccccc2)c1 (stereo not shown)  remaining activity (uncharacterized protein (Anopheles coluzzii, UniProt A0A6E8VQK1); enzyme activity, inhibitor; Sf9 cell homogenate; 29.59 µM, 0.1667 h, added: α-naphthyl acetate substrate; baseline: no inhibitor): 98.5%
COc1cc(N)c(Cl)cc1C(=O)NC1CN2CCC1CC2 (stereo not shown)  log2 fold change (GPR32 (Homo sapiens, UniProt O75388); β-arrestin recruitment, TANGO luminescence; concentration not given; baseline: basal luminescence): 0.101
CC[C@H](CO)Nc1nc(NCc2ccc(-c3ccccn3)cc2)c2ncn(C(C)C)c2n1  binding score (Dual specificity tyrosine-phosphorylation-regulated kinase 1A (DYRK1A, Homo sapiens, UniProt Q13627); KINOMEscan competition binding; 10 µM, primary screen; direction not given): 0.5
CC[N+]1(CC)CCN(c2cccc(Br)c2)CC1  ACh response (Nicotinic acetylcholine receptor alpha1/beta1/epsilon/delta (Mus musculus, UniProt P02716+P04756+P09690+P20782); ion current, inhibitor, two-electrode voltage clamp; Xenopus oocytes; 30 µM, after co-application, unit not given, added: ACh 30 µM; baseline: ACh alone): 0.537 ± 0.254
COc1ccc(F)cc1C(=O)NCc1ccc(-c2nn([C@@H](C)C(F)(F)F)c(N)c2C(N)=O)cc1  selectivity ratio (Tyrosine-protein kinase Fyn (FYN, Homo sapiens, UniProt P06241); target engagement, NanoBRET; HEK293; baseline: FYN over BTK): > 7600
CC(=O)c1cnc2ccc(-c3cc(Cl)c(O)c(Cl)c3)nc2c1N[C@H]1CC[C@H](CN(C)C)CC1  fold change of KD (Probable receptor-like protein kinase At4g39110 (Arabidopsis thaliana, UniProt Q9T020); binding, SPR; concentration not given; baseline: FER): > 100
CC(C)(COP(=O)(O)OP(=O)(O)OCC1OC(n2cnc3c(N)ncnc32)C(O)C1OP(=O)(O)O)C(O)C(=O)NCCC(=O)NCCSC(=O)CC(O)(CC(=O)O)C(=O)O (stereo not shown)  hydrolysis rate constant (gltA (Thermoplasma acidophilum, UniProt P21553, D318G); citryl-CoA hydrolysis, substrate; saturating, pH 8, 20 °C): 0.004 s⁻¹
COc1ncccc1-c1cnn2ccc(N3CCN(C(=O)OC(C)C)CC3)nc12  remaining binding (SIK1; KINOMEscan binding; 1 µM; baseline: untreated control): 100%
NNCCc1c[nH]c2ccccc12  SILAC ratio (Secernin-3 (Homo sapiens, UniProt Q0VDG4); ABPP-SILAC; HEK-293T cell lysate; 1 µM; baseline: DMSO): 0.5
CC12CCC(CC1)C(C)(C)O2  ΔG (1,8-cineole 2-endo-monooxygenase (cinA, Citrobacter braakii, UniProt Q8VQF6, N242A); isothermal titration calorimetry; N242A mutant): -6.7 kcal/mol
COc1cc(Nc2ncc(F)c(Nc3ccc4c(n3)NC(=O)C(C)(C)O4)n2)cc(OC)c1OC  inhibition (Cyclin-dependent kinase 4 (CDK4, Homo sapiens, UniProt P11802); KINOMEscan; 10 µM, -cyclinD3): 6%
O=C(O)COP(=O)(O)O  Ki ratio (TPI1 (Saccharomyces cerevisiae, UniProt P00942, S211G/Y208T); enzyme activity, competitive inhibitor, GPDH/NADH-coupled; pH 8.9, 25 °C, ionic strength 0.1 NaCl, added: glyceraldehyde 3-phosphate substrate; baseline: mutant over wild type): 6.5
O=C(Nc1cccnn1)N1CCC(=Cc2cccc(Oc3ccc(C(F)(F)F)cn3)c2)CC1  inhibition (kainate receptor, rat; binding; 50 µM, added: [3H]kainic acid): 8%
CC[C@@H](C)[C@@H](NC(=O)[C@@H](Cc1ccc(O)cc1)NC(=O)[C@H]1CCCN1C(=O)[C@@H](CCCNC(=N)N)NC(=O)[C@H](N)Cc1c[nH]cn1)C(=O)N[C@H](C)C(=O)N[C@H](Cc1c[nH]cn1)C(=O)N[C@H](CCCNC(=N)N)C(=O)N[C@H](CCCCNC(=O)c1cccc(S(=O)(=O)F)c1)C(=O)N[C@H](Cc1ccc(O)cc1)C(=O)N[C@H](CO)C(=O)N[C@H](Cc1ccccc1)C(N)=O  PD-L1 blocking rate (Programmed cell death 1 ligand 1, with PD-1 (Cd274, Mus musculus, UniProt Q9EP73); PD-1-Fc binding; HEK293T-mPD-L1; concentration not given, 48 h): 19.2% and 20.5% and 19.8%
C[C@H]1CN(c2n[nH]c3nc(N[C@H]4CC[C@H](NS(=O)(=O)CCC(F)(F)F)CC4)ncc23)CCO1  remaining binding (Cysteine--tRNA ligase, cytoplasmic (Homo sapiens, UniProt P49589); Kinobeads competition, item: CARS; 0.16 µM, unit not given; baseline: vehicle): 1.09
[2H]c1c([2H])c([C@]2([2H])CCCN2C(=O)C(C)(C)Oc2ccc3cn[nH]c3c2)c([2H])c([2H])c1C([2H])([2H])[2H]  remaining binding (Ribosomal protein S6 kinase alpha-2, N-terminal kinase domain (RPS6KA2, Homo sapiens, UniProt Q15349); KINOMEscan; 1 µM; baseline: DMSO control): 81%
NC(=O)c1coc(C(=O)CCl)c1  labelling (UCHL1; covalent, intact protein LC-MS; 12.5 µM): 28.2%
CN(C(=O)n1cnc(-c2ccc[n+]([O-])c2)c1)C1CCCCC1  inhibition (Calcium/calmodulin-dependent protein kinase type II subunit delta (CAMK2D, Homo sapiens, UniProt Q13557); enzyme activity; 50 µM, added: autocamtide-2): 10%
CN1CCN(c2cc(-c3ccncc3)c(-c3ccc4ccccc4c3)nn2)CC1  activation (Substance-K receptor (TACR2, Homo sapiens, UniProt P21452); agonist, FLIPR; 12.5 µM): 8.6%
O=C(Nc1cnccc1Cl)N1CCN(Cc2ccc3c(c2)OC(F)(F)O3)CC1  inhibition (kainate receptor, rat; binding; 10 µM, added: [3H]kainic acid): 9%
O=C(CCl)C1CC12CCCCC2 (stereo not shown)  labelling (UCHL1; covalent, intact protein LC-MS; 12.5 µM): 12.2%
COC(=O)[C@]1(O)C[C@@H]2O[C@@]1(C)n1c3ccccc3c3c4c(c5c6ccccc6n2c5c31)C(=O)NC4  remaining activity (Transient receptor potential cation channel subfamily M member 8 (TRPM8, Homo sapiens, UniProt Q7Z2W7); antagonist; HEK293; 5 µM): 106 ± 2.83%
Oc1c(Cl)cc(-c2ccccc2F)cc1Cl  Vmax (Sulfotransferase 2A1 (SULT2A1, Homo sapiens, UniProt Q06520); substrate; pH 7.0, 37 °C, added: PAPS 200 µM): 69 nmol/min/mg
Cc1nn(C)cc1-c1nc2c(N3CCN(Cc4ccc(Cl)cc4)CC3)c(Cl)cnc2[nH]1  remaining binding (Serine/threonine-protein kinase VRK2 (VRK2, Homo sapiens, UniProt Q86Y07); KINOMEscan; 1 µM; baseline: DMSO control): 100%
O=C(c1ccc(Cl)cc1)N1CCN2C(=O)N(OC(=O)N3CCOc4ccccc43)C(=O)C2C1 (stereo not shown)  probe labelling ratio (Palmitoleoyl-protein carboxylesterase NOTUM (NOTUM, Homo sapiens, UniProt Q6P988); MS-based ABPP; SW-620 conditioned medium; 10 µM, median ratio; baseline: compound over DMSO): 0.51
